Assay results collected from several papers.
Values joined by “and” are separate records of one study, mostly repeats; a detail may differ.
Target: Serine/threonine-protein kinase PAK 5 (PAK5, Homo sapiens, UniProt Q9P286)

SMILES | test | conditions | how to read | endpoint | result
COc1ccc(NC(=O)Nc2ccc3c(c2)C(=O)N(C(C)CO)CC(C)C(CN(C)Cc2ccc4c(c2)OCO4)O3)cc1 (stereo not shown) | kinase activity, KinaseProfiler | 0.03 µM, species human | reference: control | remaining activity | 107%
CNC(=O)C[C@H](Cc1ccc(C#N)cc1)NC(=O)c1cc(-c2ccc(CN[C@H](C)c3ccc(C)cc3)o2)ccc1Cl | enzyme activity, inhibitor | 1 µM | – | activity vs control | 104%
Cc1c[nH]c2nccc(-c3ccc(C(=O)N[C@@H]4c5c(F)cc(C(F)F)cc5C[C@@H]4O)cn3)c12 | binding, competition with immobilised ligand | 3 µM | – | remaining binding | 14%
COc1cc(Nc2nccc(-c3cnn4nc(OC)ccc34)n2)cc(C(F)(F)F)c1 | binding, competition with immobilised ligand | 1 µM | – | remaining binding | 100%
COCC12C(=O)NC3C4(C(OC)CC1O)C1CC5(O)C(OC)C(O)C(OC(C)=O)(C1C5OC(=O)c1ccccc1)C3(O)C(OC)C24 (stereo not shown) | kinase activity, inhibitor, ProQinase kinase profiling | 25 µM | reference: control | remaining activity | 94% and 102%
COc1c(Cl)cccc1Nc1c(-c2ccncc2C#C[C@@]2(C)CCCN2C(=O)/C=C/CN(C)C)[nH]c2c1C(=O)NCC2 | cell-free assay, competition with immobilised ligand | 3 µM | – | remaining binding | 70%
Nc1ncc(-c2cc(-c3cnn(CC(F)(F)F)c3)ncc2F)nc1C(=O)NC1CNCC(F)C1 (stereo not shown) | enzyme activity | 1 µM | reference: DMSO control | remaining activity | 93.9%
Nc1nc(Nc2ccccc2)sc1C(=O)c1ccccc1 | enzyme activity, inhibitor | 10 µM | – | remaining activity | 38%
Cc1cccc(-c2ccc3nc(NC(=O)C4CCCO4)nn3c2)c1 (stereo not shown) | enzyme activity, Dundee kinase panel | 10 µM | – | remaining activity | 88%
Cc1cccc(O[C@H]2CCC[C@@H](C(C)CNCc3ccncc3)C2)c1 (relative stereo) | enzyme activity, inhibitor | 10 µM | – | inhibition | -5%
C=CC(=O)N1CCCC(n2c(=O)c3ncccc3n(Cc3ccc(Oc4ccccc4)cc3)c2=O)C1 (stereo not shown) | cell-free assay, competition with immobilised ligand | 1 µM | – | remaining binding | 100%
CCN1CCN(Cc2ccc(C(=O)Nc3ccc(C)c(NCc4cnc5[nH]ccc5c4OC)c3)cc2C(F)(F)F)CC1 | binding, competition with immobilised ligand | 1 µM | – | remaining binding | 100%
C=CC(=O)N1CCc2ccc(-n3c(=O)ccc4cnc5ccc(-c6cnn(C)c6)cc5c43)cc21 | KINOMEscan | 1 µM | reference: DMSO control | remaining binding | 91%
